Measured values gathered from unrelated publications.
Every numbered part comes from another study and shows a few of its results, in no order.

Set 1
Target: Ras GTPase-activating protein-binding protein 1, RRM domain (G3BP1, Homo sapiens, UniProt Q13283)
Sequence of UniProt Q13283 (whole entry, looked up): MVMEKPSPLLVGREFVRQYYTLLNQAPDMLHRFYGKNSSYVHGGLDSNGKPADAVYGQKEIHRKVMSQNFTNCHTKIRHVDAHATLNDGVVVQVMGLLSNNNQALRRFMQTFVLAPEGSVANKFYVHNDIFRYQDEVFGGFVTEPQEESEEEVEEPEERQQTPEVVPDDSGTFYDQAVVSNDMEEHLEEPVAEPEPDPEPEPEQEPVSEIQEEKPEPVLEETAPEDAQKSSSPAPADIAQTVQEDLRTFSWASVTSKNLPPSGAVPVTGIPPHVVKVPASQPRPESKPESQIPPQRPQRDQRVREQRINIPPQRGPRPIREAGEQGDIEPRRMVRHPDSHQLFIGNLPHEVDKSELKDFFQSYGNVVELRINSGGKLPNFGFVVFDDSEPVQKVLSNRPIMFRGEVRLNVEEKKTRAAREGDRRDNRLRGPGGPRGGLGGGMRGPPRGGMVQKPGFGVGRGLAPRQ
Technique: RNA Bind-n-Seq
Molecule type: RNA
Sample: in vitro
Concentration: 1 µM
Setting: whole 134-nt RNA, ends assumed
Added: 150 mM KCl
Relative to: input library
Direction: higher = stronger binding
`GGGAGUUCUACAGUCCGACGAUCAAGUCCUGUGCUACACAUCGUAUGUACCGAAUCGGGAAAAAAAGGGUGGGUUUGGGAAAGUAUUAUGUUACGCCGUUCGGAUCUGCACUUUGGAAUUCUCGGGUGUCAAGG` gave a log2 enrichment of 0.599.
For `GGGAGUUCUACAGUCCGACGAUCUGGGAGGUGGAUUUUGUUUAUUUUUUUAGCUCAUUUCCAGGGGUGGGAAUUUUUUUUUACUAUGUGUCAUGAAUAAAGUUGUUUUUGAAAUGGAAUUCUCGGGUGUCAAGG`, the log2 enrichment was 1.94.
For `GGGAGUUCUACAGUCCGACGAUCAAGUCCUGUGCUACACAUCGUAUGUACCGAAUCGGGUUUUGGGUUUUGGGUUUUGGAAAGUAUUAUGUUACGCCGUUCGGAUCUGCACUUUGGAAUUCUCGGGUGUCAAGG`, the log2 enrichment was -0.237.
For `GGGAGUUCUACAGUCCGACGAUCUGGGAGGUGGAUUUUGUUUAUUUUUUUAGCUCAUUUCCAGGGGUGGGAAUUAUUUUUUAAUAUGUGUCAUGAAUAAAGUUGUUUUUGAAAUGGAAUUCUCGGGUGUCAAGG`, the log2 enrichment was 2.01.
`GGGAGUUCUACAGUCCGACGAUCUGGGAGGUGGAUUUUGUUUAUUUUUUUAGCUCAUUUCCAGGGGUGGGAAUUUUUUUUUAAUAUGUGUCAUGAAUAACGUUGUUUUUGAAAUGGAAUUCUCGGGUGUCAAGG` has a log2 enrichment of 0.761.
`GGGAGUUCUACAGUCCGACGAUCCUUCUUGCAUGCUCGGCUCCGGACAGCUACGCUUCGGCAUGACGCAGACGGGCAGGCCACCCUGUUGAACCUCCUGCUGCGGAAUUACCUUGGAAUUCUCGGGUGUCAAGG` gave a log2 enrichment of -0.318.
`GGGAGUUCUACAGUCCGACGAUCAAGUCCUGUGCUACACAUCGUAUGUACCGAAUCGGGGUUUUUGGGGAGGGGAGGGGAAAGUAUUAUGUUACGCCGUUCGGAUCUGCACUUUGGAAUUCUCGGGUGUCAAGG` gave a log2 enrichment of 0.981.
For `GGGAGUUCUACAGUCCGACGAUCCAAGUCCUGUGCUACACAUCGUAUGUACCGAAUCGGGUUUUUGGGUUUGGGUGGGAAAGUAUUAUGUUACGCCGUUCGGAUCUGCACUUCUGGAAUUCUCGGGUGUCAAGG`, the log2 enrichment was 0.608.

Set 2
Cell line: HEK-293T
Observed: pseudovirus infection
Technique: FDA-approved drug library screen
Organism: VSV pseudotyped with SARS-CoV-2 spike
Concentration: 10 µM
Time: 16 h
Relative to: vehicle-treated
With O=C1c2c(O)ccc(O)c2C(=O)c2c(NCCNCCO)ccc(NCCNCCO)c21 the GFP-positive cells was 113%.
With CCN(CC)C(=O)Nc1ccc(OCC(O)CNC(C)(C)C)c(C(C)=O)c1 (stereo not shown) the GFP-positive cells was 82.2%.
C[C@@H]1O[C@@H](OC[C@H]2O[C@@H](Oc3c(-c4ccc(O)c(O)c4)oc4cc(O)cc(O)c4c3=O)[C@H](O)[C@@H](O)[C@@H]2O)[C@H](O)[C@H](O)[C@H]1O gave a GFP-positive cells of 108%.
For CC(=O)OCC[N+](C)(C)C, the GFP-positive cells was 86.7%.

Set 3
Target: Histone acetyltransferase KAT6A, winged helix 2, GST fusion (KAT6A, Homo sapiens, UniProt Q92794, residues 85-181)
Technique: protein binding microarray
Molecule type: double-stranded DNA, one strand shown
Sample: in vitro
Concentration: not given
Setting: 8-mer, flanks averaged, mean of 2 arrays, mostly near background
Relative to: not given
Direction: higher = stronger binding
Construct (chain): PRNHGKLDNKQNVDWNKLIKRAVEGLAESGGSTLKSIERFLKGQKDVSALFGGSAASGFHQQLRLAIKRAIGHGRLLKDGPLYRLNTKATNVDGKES
With `AATCCGCC` the E-score was 0.0852.
For `ACGATCCG`, the E-score was -0.0185.
For `AACCAAAC`, the E-score was -0.0507.
The E-score of `TCGTTGCA` is reported as 0.0405.
For `CACTTTCA`, the E-score was 0.0518.
`ACAAGTGC` gave an E-score of -0.197.
With `CATACGCC` the E-score was 0.0191.
The E-score of `CGTAGACG` is reported as -0.0383.

Set 4
Target: Replicase polyprotein 1ab, polymerase (rep, Severe acute respiratory syndrome coronavirus 2, UniProt P0DTD1)
Observed: enzyme activity
Action: inhibitor
Concentration: 20 µM
The inhibition of C=CCN1CC[C@]2(C)c3cc(O)ccc3C[C@@H]1[C@@H]2C is reported as -3.12%.
COc1ccc2c(c1)c(C1=C(c3c[nH]c4ccccc34)C(=O)NC1=O)cn2CCCN(C)C has an inhibition of 11.3%.
The inhibition of CC(=O)OCC(=O)[C@@]12N=C(C)O[C@@H]1C[C@H]1[C@@H]3CCC4=CC(=O)C=C[C@]4(C)[C@H]3[C@@H](O)C[C@@]12C is reported as -2.83%.
The inhibition of O=c1[nH]c2cc(C(F)(F)F)c(N3CCOCC3)cc2n(CP(=O)(O)O)c1=O is reported as 3.03%.
O=C(CCNNC(=O)c1ccncc1)NCc1ccccc1 gave an inhibition of -4.01%.
O=C(C[S+]([O-])C(c1ccccc1)c1ccccc1)NO (stereo not shown) gave an inhibition of 3.84%.
CCn1c(-c2nonc2N)nc2cncc(CNC3CCNCC3)c21 gave an inhibition of -8%.
Nc1nc(=O)c2c([nH]1)NC[C@H](CNc1ccc(C(=O)N[C@@H](CCC(=O)O)C(=O)O)cc1)N2C=O has an inhibition of -2.44%.
With CCC[C@@H](NC(=O)N1C(=O)C(CC)(CC)[C@@H]1Oc1ccc(C(=O)N2CCN(C)CC2)cc1)c1ccc2c(c1)OCO2 the inhibition was 1.02%.
With CCn1c(=O)/c(=C2\Sc3ccccc3N2C)s/c1=C\c1cccc[n+]1CC the inhibition was 97.8%.
The inhibition of CC[C@H]1OC(=O)[C@@](C)(F)C(=O)[C@H](C)[C@@H](O[C@@H]2O[C@H](C)C[C@H](N(C)C)[C@H]2O)[C@](C)(OC)C[C@@H](C)C(=O)[C@H](C)[C@H]2N(CCCCn3cc(-c4cccc(N)c4)nn3)C(=O)O[C@]12C is reported as -1.75%.
Cc1cc([N+](=O)[O-])ccc1NS(=O)(=O)c1cc(Cl)ccc1Cl has an inhibition of -3.46%.
For Cc1ncc([N+](=O)[O-])n1CC(O)CN1CCOCC1 (stereo not shown), the inhibition was -3.19%.
CC[C@H](C)[C@@H]1NC(=O)[C@H](Cc2ccc(OC)cc2)NC(=O)CCCSC[C@@H](C(=O)N2CCC[C@H]2C(=O)N[C@@H](CC(C)C)C(=O)NCC(N)=O)NC(=O)[C@H](CC(N)=O)NC(=O)[C@H](CCC(N)=O)NC1=O has an inhibition of 8.35%.
For CC[N+](CC)(CCCNC1=CC(=O)C(NCCC[N+](CC)(CC)Cc2ccccc2)=CC1=O)Cc1ccccc1, the inhibition was -3.93%.
NCCc1c[nH]c2ccc(O)cc12 has an inhibition of -2.55%.
For CC[C@@H](c1cccc(O)c1)[C@@H](C)CN(C)C, the inhibition was -2.45%.
For c1cc2c3c(c1)c1c(n3CCNC2)CCCC1, the inhibition was 6.16%.
C[C@]12CC[C@@H]3c4ccc(O)cc4CC[C@H]3[C@@H]1[C@@H](O)[C@@H](O)[C@@H]2O gave an inhibition of -11.8%.
For COc1c(O[C@@H]2O[C@H](CO)[C@@H](O)[C@H](O)[C@H]2O)cc2c(c1OC)-c1ccc(SC)c(=O)cc1[C@@H](NC(C)=O)CC2, the inhibition was -0.94%.
O=C(NOCC1CC1)c1ccc(F)c(F)c1Nc1ccc(I)cc1Cl gave an inhibition of -0.7%.
For O=C(O)C1=CCCN(CCON=C(c2ccccc2)c2ccccc2)C1, the inhibition was -3.28%.

Set 5
Target: Krueppel-like factor 3, full length (KLF3, Homo sapiens, UniProt P57682, residues 1-345)
Sequence of UniProt P57682 (whole entry, looked up): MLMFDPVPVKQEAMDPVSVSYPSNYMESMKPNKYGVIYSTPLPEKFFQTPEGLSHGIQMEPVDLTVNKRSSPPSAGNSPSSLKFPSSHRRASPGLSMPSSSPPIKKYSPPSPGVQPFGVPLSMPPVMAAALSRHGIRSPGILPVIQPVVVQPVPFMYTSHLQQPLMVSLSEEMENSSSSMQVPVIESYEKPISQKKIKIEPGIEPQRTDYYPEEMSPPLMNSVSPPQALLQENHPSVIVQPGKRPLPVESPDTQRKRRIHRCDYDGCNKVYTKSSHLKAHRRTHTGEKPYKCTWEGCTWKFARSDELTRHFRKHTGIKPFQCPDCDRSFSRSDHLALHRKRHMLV
Technique: protein-binding microarray
Molecule type: hairpin DNA
Sample: in vitro
Concentration: not given
Setting: whole hairpin DNA, median over replicate spots
Relative to: not given
Direction: higher = stronger binding
With `GAGGCCGACCCCGCCCAGCCTCCTGGCTGGGCGGGGTCGGCCTCACACTC` the median fluorescence was 8860 a.u.
`GAGGCCCACCACGCCCAGCCTCCTGGCTGGGCGTGGTGGGCCTCACACTC` gave a median fluorescence of 9240 a.u.
With `GAGGCCGACCACCGCCAGCCTCCTGGCTGGCGGTGGTCGGCCTCACACTC (5mC at 31)` the median fluorescence was 8520 a.u.
`GAGGCCGAACACGCCCAGCCTCCTGGCTGGGCGTGTTCGGCCTCACACTC` gave a median fluorescence of 8710 a.u.
For `GAGGCCGACCACCGCCAGCCTCCTGGCTGGCGGTGGTCGGCCTCACACTC (5mC at 13 31)`, the median fluorescence was 8470 a.u.
`GAGGCCGACCGCGCCGAGCCTCCTGGCTCGGCGCGGTCGGCCTCACACTC` gave a median fluorescence of 8530 a.u.

Mixed results
For Oc1ccc2ccccc2c1SSc1c(O)ccc2ccccc12, the inhibition was -61.1% (Replicase polyprotein 1ab, main protease (rep, Severe acute respiratory syndrome coronavirus 2, UniProt P0DTD1); enzyme activity; 20 µM, with DTT).

Repeated from above (set 4):
COc1ccc2c(c1)c(C1=C(c3c[nH]c4ccccc34)C(=O)NC1=O)cn2CCCN(C)C has an inhibition of 11.3%.
C[C@]12CC[C@@H]3c4ccc(O)cc4CC[C@H]3[C@@H]1[C@@H](O)[C@@H](O)[C@@H]2O gave an inhibition of -11.8%.
With CCC[C@@H](NC(=O)N1C(=O)C(CC)(CC)[C@@H]1Oc1ccc(C(=O)N2CCN(C)CC2)cc1)c1ccc2c(c1)OCO2 the inhibition was 1.02%.
CC[C@H](C)[C@@H]1NC(=O)[C@H](Cc2ccc(OC)cc2)NC(=O)CCCSC[C@@H](C(=O)N2CCC[C@H]2C(=O)N[C@@H](CC(C)C)C(=O)NCC(N)=O)NC(=O)[C@H](CC(N)=O)NC(=O)[C@H](CCC(N)=O)NC1=O has an inhibition of 8.35%.
For COc1c(O[C@@H]2O[C@H](CO)[C@@H](O)[C@H](O)[C@H]2O)cc2c(c1OC)-c1ccc(SC)c(=O)cc1[C@@H](NC(C)=O)CC2, the inhibition was -0.94%.
CCn1c(-c2nonc2N)nc2cncc(CNC3CCNCC3)c21 gave an inhibition of -8%.
O=C(C[S+]([O-])C(c1ccccc1)c1ccccc1)NO (stereo not shown) gave an inhibition of 3.84%.
For CC[N+](CC)(CCCNC1=CC(=O)C(NCCC[N+](CC)(CC)Cc2ccccc2)=CC1=O)Cc1ccccc1, the inhibition was -3.93%.
